Measurements collected from several papers.
Protocols differ between the studies behind these lines. Values joined by “and” are separate records of one study, mostly repeats; a detail may differ. ± gives the spread as reported.

SMILES | test | system | setting | tissue uptake
Cc1cc(C)n(CCN(CCN)CCCCCCNC(=O)[C@@H](N)Cc2c[nH]c3ccccc23)n1.[99Tc+].[C-]#[O+].[C-]#[O+].[C-]#[O+] |  | BALB/c nude mice, A549 xenograft, intestine | intravenous, 4 h | 12 ± 1.96 %IA/g
COc1ccc2c(c1)C(C)(C)C(/C=C/C1=C(Oc3ccc(C(=O)NCCCCOc4cc(CN(Cc5ccccn5)Cc5ccccn5)cc(CN(Cc5ccccn5)Cc5ccccn5)c4)cc3)C(=C/C=C3/N(CCCCS(=O)(=O)[O-])c4ccc(OC)cc4C3(C)C)CCC1)=[N+]2CCCCS(=O)(=O)[O-].O=[N+]([O-])[O-].O=[N+]([O-])[O-].[99Tc+].[C-]#[O+].[C-]#[O+].[C-]#[O+].[Zn+2] |  | BALB/c mice, healthy, thyroid and trachea | intravenous, 0.74 MBq, 12 h post-injection | 0.98 %ID/g and 1.19 %ID/g and 1.27 %ID/g and 1.11 %ID/g
N#C[C@@H]1CCCN1C(=O)CNC(=O)c1ccnc2ccc(OCCCN3CCN(C(=O)CCc4ccc5c(c4)CN4CCN(Cc6cc(CCC(=O)O)ccc6O)CC(=O)[O][Al-]([18F])([O]C(=O)C4)[O]5)CC3)cc12 (stereo partly shown) |  | BALB/c nude mice, U-87 MG xenograft, kidney | 1 h | 1.74 ± 0.57 %ID/g
COc1ccc(Nc2nc(Nc3ccc(OCCOCC[18F])cc3)ncc2Br)cc1 |  | ICR mice, S180 tumour, intestine | intravenous, 370 kBq, 15 min | 2.66 ± 0.09 %ID
O=C(O)CCCOc1ccc([18F])cc1-c1cc(-c2ccccc2C(F)(F)F)n(-c2ccccc2)n1 |  | mice, large intestine | intravenous, 15 min | 0.46 ± 0.09 %ID/g
Cc1cc(C)n(CCN(CCN)CCCCCCNC(=O)[C@@H](N)Cc2c[nH]cn2)n1.[99Tc+].[C-]#[O+].[C-]#[O+].[C-]#[O+] |  | BALB/c nude mice, A549 xenograft, stomach | intravenous, 4 h | 0.78 ± 0.25 %IA/g
CCCC[C@H](NC(=O)COCCOCCNC(=O)CN1CCN(CC(=O)O)CCN(CC(=O)O)CC1)C(=O)N[C@H]1CC(=O)NCCCC[C@@H](C(N)=O)NC(=O)[C@H](Cc2c[nH]c3ccccc23)NC(=O)[C@H](CCCNC(=N)N)NC(=O)[C@@H](Cc2ccccc2)NC(=O)[C@H](Cc2c[nH]cn2)NC1=O [fluorine-18 labelled] |  | C57 mice, B16/F10 melanoma, lung | intravenous, 1 h, added: NDP-MSH 10 µg | 0.86 ± 0.38 %ID/g
CCCC[C@H](NC(=O)CNC(=O)CNC(=O)[C@H](CCCCNC(=O)[C@H](CC(N)=O)NC(=O)C(C)c1ccc(CC(C)C)cc1)NC(=O)CN1CCN(CC(=O)O)CCN(CC(=O)O)CCN(CC(=O)O)CC1)C(=O)N[C@H]1CC(=O)NCCCC[C@@H](C(N)=O)NC(=O)[C@H](Cc2c[nH]c3ccccc23)NC(=O)[C@H](CCCNC(=N)N)NC(=O)[C@@H](Cc2ccccc2)NC(=O)[C@H](Cc2c[nH]cn2)NC1=O (stereo partly shown) [lutetium-177 labelled] |  | C57 mice, tumour-bearing, bone | 2 h | 0.88 ± 0.34 %ID/g
O=C([O-])CN1CCN(CC(=O)[O-])CCN(CC(=O)NC[C@H]2CC[C@H](C(=O)N[C@H](Cc3cnc4ccccc4c3)C(=O)NCCCC[C@H](NC(=O)N[C@@H](CCC(=O)O)C(=O)O)C(=O)O)CC2)CCN(CC(=O)[O-])CC1.[64Cu+2] | ex vivo gamma counting | 22Rv1 tumour-bearing mice, bone | intravenous, 0.74 MBq, 6 h post-injection | 3.44 %ID/g
CCCC[C@H](NC(=O)CCCCCCCNC(=O)CN1CCN(CC(=O)O)CCN(CC(=O)O)CC1)C(=O)N[C@H]1CC(=O)NCCCC[C@@H](C(N)=O)NC(=O)[C@H](Cc2c[nH]c3ccccc23)NC(=O)[C@H](CCCNC(=N)N)NC(=O)[C@@H](Cc2ccccc2)NC(=O)[C@H](Cc2c[nH]cn2)NC1=O [fluorine-18 labelled] |  | C57 mice B16-F10 melanoma, bone | intravenous, 0.37 MBq, 1 h | 0.91 ± 0.67 %ID/g
COc1ccc(Nc2nc(Nc3ccc(OCCOCCOCC[18F])cc3)ncc2Br)cc1 |  | ICR mice, S180 tumour-bearing, spleen | intravenous, 370 kBq, 60 min | 1.25 ± 0.11 %ID/g
N#C[C@@H]1CCCN1C(=O)CNC(=O)c1ccnc2ccc(OCCCN3CCN(C(=O)CCc4ccc(O)c(CN5CCN6CC(=O)[O][Al-]([18F])([O]C(=O)C5)[O]c5ccc(CCC(=O)N7CCN(CCCOc8ccc9nccc(C(=O)NCC(=O)N%10CCC[C@H]%10C#N)c9c8)CC7)cc5C6)c4)CC3)cc12 (stereo partly shown) |  | BALB/c nude mice, U-87 MG xenograft, brain | 1 h, blocking, added: DOTA-FAPI-04 40 nmol/mouse co-injected | 0.17 ± 0.02 %ID/g
O=C(NCC1OC2CCC=CCCC2O1)c1ccc(COCCOCCOCC[18F])cc1 (stereo not shown) |  | healthy female BALB/c nude mice, skin | intravenous, 7.4 MBq per mouse, 15 min | 3.2 ± 0.1 %ID/g
CC(C)C[C@H](NC(=O)[C@@H](CCCCNC(=O)[C@@H](Cc1ccccc1)NC(=O)CCCCCCCNC(=O)CN1CCN(CC(=O)O)CCN(CC(=O)O)CCN(CC(=O)O)CC1)NC(=O)[C@H](Cc1ccc(O)cc1)NC(=O)[C@H](CO)NC(=O)[C@H](Cc1c[nH]c2ccccc12)NC(=O)[C@H](Cc1c[nH]cn1)NC(=O)[C@@H]1CCC(=O)N1)C(=O)N[C@@H](CCCNC(=N)N)C(=O)N1CCC[C@H]1C(=O)NCC(N)=O [indium-111 labelled] | biodistribution | male athymic nude mice, DU-145 prostate cancer xenograft, tumor | intravenous, 0.037 MBq, 4 h post-injection | 0.32 ± 0.03 %ID/g
CCCC[C@H](NC(=O)CNC(=O)CNC(=O)[C@H](CCCCNC(=O)C(C)c1ccc(CC(C)C)cc1)NC(=O)CN1CCN(CC(=O)O)CCN(CC(=O)O)CCN(CC(=O)O)CC1)C(=O)N[C@H]1CC(=O)NCCCC[C@@H](C(N)=O)NC(=O)[C@H](Cc2c[nH]c3ccccc23)NC(=O)[C@H](CCCNC(=N)N)NC(=O)[C@@H](Cc2ccccc2)NC(=O)[C@H](Cc2c[nH]cn2)NC1=O (stereo partly shown) [lutetium-177 labelled] |  | C57 mice, tumour-bearing, blood | 2 h | 1.27 ± 0.26 %ID/g
O=C(NCC1OC2CCC=CCCC2O1)c1ccc([18F])nc1 (stereo not shown) |  | healthy female BALB/c nude mice, liver | intravenous, 7.4 MBq per mouse, 5 min | 11.9 ± 4 %ID/g

Repeated from above:
SMILES | test | system | setting | tissue uptake
CCCC[C@H](NC(=O)CCCCCCCNC(=O)CN1CCN(CC(=O)O)CCN(CC(=O)O)CC1)C(=O)N[C@H]1CC(=O)NCCCC[C@@H](C(N)=O)NC(=O)[C@H](Cc2c[nH]c3ccccc23)NC(=O)[C@H](CCCNC(=N)N)NC(=O)[C@@H](Cc2ccccc2)NC(=O)[C@H](Cc2c[nH]cn2)NC1=O [fluorine-18 labelled] |  | C57 mice B16-F10 melanoma, bone | intravenous, 0.37 MBq, 1 h | 0.91 ± 0.67 %ID/g
N#C[C@@H]1CCCN1C(=O)CNC(=O)c1ccnc2ccc(OCCCN3CCN(C(=O)CCc4ccc(O)c(CN5CCN6CC(=O)[O][Al-]([18F])([O]C(=O)C5)[O]c5ccc(CCC(=O)N7CCN(CCCOc8ccc9nccc(C(=O)NCC(=O)N%10CCC[C@H]%10C#N)c9c8)CC7)cc5C6)c4)CC3)cc12 (stereo partly shown) |  | BALB/c nude mice, U-87 MG xenograft, brain | 1 h, blocking, added: DOTA-FAPI-04 40 nmol/mouse co-injected | 0.17 ± 0.02 %ID/g
